{"data": "Measurements collected from several papers", "note": "Each numbered part is a random draw from the data of one study; scales do not carry over between parts. Positions count from the first letter of the parent shown."}
{"data": "Set 1", "target": "Histone acetyltransferase KAT6A, winged helix 2, GST fusion (KAT6A, Homo sapiens, UniProt Q92794, residues 85-181)", "technique": "protein binding microarray", "molecule type": "double-stranded DNA, one strand shown", "sample": "in vitro", "tested at": "not given", "setting": "8-mer, flanks averaged, mean of 2 arrays, mostly near background", "reference": "not given", "reading": "higher = stronger binding", "Construct (chain)": "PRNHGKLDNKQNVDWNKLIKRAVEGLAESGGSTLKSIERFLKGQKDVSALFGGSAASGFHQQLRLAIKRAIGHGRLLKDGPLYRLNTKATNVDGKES"}
{"Strand": "ATAAACAC", "E-score": 0.0222}
{"Strand": "CACATCAA", "E-score": 0.0247}
{"Strand": "GACGTCTC", "E-score": -0.0325}
{"Strand": "ACACACAG", "E-score": 0.0246}
{"Strand": "ATCGTTAC", "E-score": -0.137}
{"Strand": "GATGTCCA", "E-score": 0.101}
{"Strand": "AATAGCAA", "E-score": 0.117}
{"Strand": "CTGTACAG", "E-score": -0.141}
{"Strand": "CTCTGTAA", "E-score": 0.0548}
{"Strand": "AATTGATG", "E-score": 0.093}
{"Strand": "AATTTACA", "E-score": -0.0353}
{"Strand": "CTATTTAA", "E-score": -0.121}
{"Strand": "GGTGTTTA", "E-score": -0.00352}
{"data": "Set 2", "target": "ABI1, truncated, D143A, DHFR fusion (Arabidopsis thaliana)", "technique": "DHFR PCA, deep sequencing", "sample": "yeast", "setting": "methotrexate growth selection, single substitutions", "added": "(+)-ABA 2500 µM", "reference": "wild-type fitted maximum", "reading": "higher = stronger binding", "parent": "PYL1, truncated, DHFR fusion (Arabidopsis thaliana); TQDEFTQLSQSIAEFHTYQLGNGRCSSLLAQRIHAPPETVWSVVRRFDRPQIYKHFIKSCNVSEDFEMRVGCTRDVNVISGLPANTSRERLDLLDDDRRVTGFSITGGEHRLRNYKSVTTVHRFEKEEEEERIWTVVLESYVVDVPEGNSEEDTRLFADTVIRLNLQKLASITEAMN; partner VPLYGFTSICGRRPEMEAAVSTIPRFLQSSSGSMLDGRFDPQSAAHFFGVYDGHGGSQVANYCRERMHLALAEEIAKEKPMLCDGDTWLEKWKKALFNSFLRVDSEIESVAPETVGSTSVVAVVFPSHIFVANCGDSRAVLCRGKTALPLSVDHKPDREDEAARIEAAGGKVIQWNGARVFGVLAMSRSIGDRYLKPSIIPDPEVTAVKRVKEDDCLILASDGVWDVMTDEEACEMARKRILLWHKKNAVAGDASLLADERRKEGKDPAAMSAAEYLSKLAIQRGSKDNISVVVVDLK"}
{"Variant": "V145E", "relative binding score [%]": 71.6}
{"Variant": "R74G", "relative binding score [%]": -4.28}
{"Variant": "F103L", "relative binding score [%]": 71.1}
{"Variant": "L94S", "relative binding score [%]": 91.7}
{"Variant": "Q10R", "relative binding score [%]": 95.3}
{"Variant": "Y53C", "relative binding score [%]": 77.6}
{"Variant": "P50L", "relative binding score [%]": -5.62}
{"Variant": "D92G", "relative binding score [%]": 80.5}
{"data": "Set 3", "target": "CCNB1, cyclin fold, Cln2 fusion (human)", "technique": "yeast growth competition, sequencing", "sample": "yeast", "setting": "weak parent motif", "reference": "not given", "reading": "higher = stronger binding", "parent": "CDC25A docking peptide (human); PPHRRRLLFACSP"}
{"Variant": "F9T", "normalised enrichment score": 1.04}
{"Variant": "P1F", "normalised enrichment score": 0.508}
{"Variant": "R5A", "normalised enrichment score": 0.936}
{"Variant": "S12Y", "normalised enrichment score": 0.831}
{"Variant": "L8W", "normalised enrichment score": 0.454}
{"Variant": "R4E", "normalised enrichment score": -0.0489}
{"Variant": "R5P", "normalised enrichment score": 0.298}
{"Variant": "R4F", "normalised enrichment score": 0.337}
{"data": "Mixed results"}
{"Molecule": "PhoQ, residues 284 288 289 292 302 303 SLSVQF", "target": "PhoP, residues 12 14 15 18 19 QYCSL (Escherichia coli, UniProt P23836)", "assay": "Sort-seq, refers to: YFP reporter", "system": "E. coli", "conditions": "PhoQ-PhoP variant library, added: 10 µM Mg2+", "how to read": "reference: high Mg2+ state, higher = stronger signaling", "endpoint": "fold induction", "value": 3.89}
